# Measured values from different studies.
# Parts stem from different laboratories: compare values within a part only. Positions count from the first letter of the parent shown.

# Sample 1
# Target: ABI1, truncated, D143A, DHFR fusion (Arabidopsis thaliana)
# Method: DHFR PCA, deep sequencing
# Sample: yeast
# Setting: methotrexate growth selection, single substitutions
# Together with: (+)-ABA 2500 µM
# Relative to: wild-type fitted maximum
# Direction: higher = stronger binding
# Parent: PYL1, truncated, DHFR fusion (Arabidopsis thaliana); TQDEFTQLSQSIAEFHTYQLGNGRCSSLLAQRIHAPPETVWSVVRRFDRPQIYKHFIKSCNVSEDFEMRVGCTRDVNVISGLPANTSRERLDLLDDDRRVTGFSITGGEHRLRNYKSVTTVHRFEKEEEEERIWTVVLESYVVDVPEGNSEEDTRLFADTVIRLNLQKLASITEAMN
Change,relative binding score
L29A,92.8%
Y53G,73.8%
Q19F,96.8%
D159S,90.7%
R88D,84.4%
E147P,94.4%
E139T,102%
E131P,103%
V100D,6.2%
C72K,90.5%
R46L,88%
W134N,110%
E64R,97.9%
W41K,-8.86%

# Sample 2
# Target: Interferon regulatory factor 3, full length, phosphomimetic (IRF3, Homo sapiens, UniProt Q14653, residues 1-427, S386D/S396D/S398D/S402D/T404D/S405D)
# Method: protein-binding microarray
# Form: double-stranded DNA, one strand shown
# Sample: in vitro
# Tested at: 2540 nM top
# Setting: 60-bp whole probe
# Together with: salmon DNA 0.4 mg/ml
# Relative to: random background probes
# Direction: higher = stronger binding
# Constant ends, left off below: GCCTAGCAC … GTCTTGATTCGCTTGACGCTGCTG
# Construct (chain): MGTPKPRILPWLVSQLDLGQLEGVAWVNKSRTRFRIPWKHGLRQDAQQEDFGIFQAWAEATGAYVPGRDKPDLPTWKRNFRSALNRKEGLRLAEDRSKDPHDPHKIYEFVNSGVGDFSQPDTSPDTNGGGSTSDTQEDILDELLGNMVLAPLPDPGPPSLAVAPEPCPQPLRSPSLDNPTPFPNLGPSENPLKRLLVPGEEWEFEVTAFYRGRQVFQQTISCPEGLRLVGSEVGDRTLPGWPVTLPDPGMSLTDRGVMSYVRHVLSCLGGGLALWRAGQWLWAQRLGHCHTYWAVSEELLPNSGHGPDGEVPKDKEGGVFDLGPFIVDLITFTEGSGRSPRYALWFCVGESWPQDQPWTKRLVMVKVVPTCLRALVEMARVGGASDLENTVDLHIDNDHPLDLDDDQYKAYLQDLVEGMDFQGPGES
Sequence,fitted relative affinity [z-score]
GTGTTTCTCAGTTTATTTATGTGCTAG,1.9
TTTTAAAATGGACACTGTACAGTGCTA,1.13
TTAGATTTCAGACTGTATTAGTGCTAG,0.858
TTAGGCCTGCTACTGCTTTAGTGCTAG,-1.06
AAGCAAAAATGATTGGTTGAGTGCTAG,-0.573
CAATATTTGCAACATCCCAATGTGCTA,0.749
TTAGGTACCGACACTGGGTTAGTGCTA,0.101
TTAGGTCTCGTTATCCTTTAGTGCTAG,1.41
TCATGCTTGTGTTTATTACTGTGCTAG,-0.239
AAGGAAGGACCATCCAGAGAGTGCTAG,-0.432
TTAGGTCTCGGACTGGGCTAGTGCTAG,-0.466
GACGGTCTCCTTCGCCTGACGTGCTAG,0.407
TTAGAACTGGGGACTGTATTAGTGCTA,-0.71
GACGGACTGGCGTATCGGGACGTGCTA,-0.425
TTAGGACTGGACACTGGGTTCGTGCTA,-0.863

# Sample 3
# Target: CCNE1, cyclin fold, Cln2 fusion (human)
# Method: yeast growth competition, sequencing
# Sample: yeast
# Setting: strong parent motif
# Relative to: not given
# Direction: higher = stronger binding
# Parent: CDKN1C docking peptide (human); TSACRSLFGPVDH
Change,normalised enrichment score
TSACRSAFGPVDH [L7A],-0.27
TAACRSLFGPVDH [S2A],1.54
TSACKSLFGPVDH [R5K],0.424
TSACRALFGPVDH [S6A],2.43
TSACRSLAGPVDH [F8A],0.239
TSACASLFGPVDH [R5A],-0.124
TSACRSLFGPVAH [D12A],1.18

# Single results of other studies
Molecule,target,assay,system,setting,how to read,endpoint,result
"PhoQ, residues 284 288 289 292 302 303 NSMLDC","PhoP, residues 12 14 15 18 19 NQFFI (Escherichia coli, UniProt P23836)","Sort-seq, refers to: YFP reporter",E. coli,"PhoQ-PhoP variant library, together with: 10 µM Mg2+","relative to: high Mg2+ state, higher = stronger signaling",fold induction,11.6

# For quick reference, copied from above (sample 1):
Change,relative binding score
E139T,102%
E131P,103%
